Measured values collected from several papers.
Every numbered part comes from another study and shows a few of its results, in no order. Positions count from the first letter of the parent shown.

Block 1
Target: RNA binding protein fox-1 homolog 2, RRM domain, GST-SBP tag (RBFOX2, Homo sapiens, UniProt O43251-10, residues 100-194)
Method: RNA Bind-n-Seq
Molecule type: RNA
Sample: in vitro
Tested at: 365 nM
Setting: natural RNA segment, single round, ends assumed
Reference: no-protein control
Direction: higher = stronger binding
Endpoint: RBNS enrichment (R)
All sequences stand within: GGGAGUUCUACAGUCCGACGAUC … UGGAAUUCUCGGGUGCCAA
Residues (chain): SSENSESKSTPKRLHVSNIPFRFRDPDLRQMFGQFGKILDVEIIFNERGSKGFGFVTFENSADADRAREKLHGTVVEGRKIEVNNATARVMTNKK
UGUUCUCUUCCUCACCUGAAAUUAUGCUUCCUAAAAUCUCAAGCCAAACUCAAAGAAUGGGGUGGUGGGGGGCACCCUGUGAGGUGGCCCCUGAGAGGUGGGGGCCUCUC: 0.338
AAGAUGCUACUGUUUUAAAGGAAAAAAAAAAAAAAAAGUACUGAUCUUCAAUAUGAAGACAUGAGCUUUUCUCGCAGGAAAUUUUCUUUUUCACAGAACUGGUGUCAGGA: 0.663
UGUGGAGCCUCUGGCAUAAGAGGAAAUGUUGCCCGAGCUAAGAGCAAAAGGAAGGUGAUAGGGAAUUAUGGAAGUCCAUCCAAGCCCCUGACACAGAGCCUUCUGUGCUG: 0.231
UGGCAUAAGCUGAAUCCCAAAUUUGAGUUUGGGAAGAACCAGAGAGAAAUGGAUCCCUGAGCUCUGAGCCAAGGGUGAGGAUGGGGAAACUCUAAGCUCCCACCUAAUAA: 0.364
CACUGUCUCCAUGUGAUUGUUACAAGCGUUUGUGCAGUUCUACUACAAUGAUAUCUGUAUGUCACUGUAAUGUUGGCCUUCGUGGGGAACCACACUUGGUGGAGCCCGAU: 0.318
AUUUAGUUUUUAGGUUUCUUUUUUUCUCUAUAACUUAUUCUUGCCUUCCCACCUCAAGCGUCUGUAUAACAUUUAGACUACACAUAAAGUUUAUGUGGUACAGACAUGCC: 0.707
CCAAGUGGAGCAGAGGUGGACAUGGGGUUGGAUUGUUUUGAUUAUUUAUAGUUACACAAGGACUUCUCCCAGCUGACCCUCAGGAUGCCCCAAGUCAGGAAGACCAUUAA: 0.381
AACCACUAUGCCAGGCCCGGAGCCUCUGAGGCAUCGGCCAGUCCAGGCCCUCAUCUGAGGUAAGAAUGUACAUCAGCUGGCAGCCCCAAGCAAGUGGCUGCAGGGACACU: 0.616
CAUAUUUGCUCUAGAAGAAAAAAAAAAAAGGAGGGGAAAUGCAUUUUCCCCAGAGAUAAAGGCUGCCAUUUUGGGGGUCUGUACUUAUGGCCUGAAAAUAUUUGUGAUCC: 0.964
UGGGGAGCCCGCAGGCCUAUGUGGCAGCGUCACCACAGGAGUUGUGGGCCUAGGAGAGGCUUUGGACCUGGGAGCCACACCUAGGAGCAAAGUCUCACCCCUUUGUCUAC: 0.283
CACAGAUCGGAAUAUGAAGUUCUUUAUGGUUCCAUAGCCUAGGUGUUUCUUGGGGGCAUUUGGGAGGCCAGGAGCAUCGUGGGCAGAUGAGAAGCAACGUUAGAAGGUUU: 0.957
UGCCCUCCUCCCAUCUGCCUUGAGAUUCCCUCGUCUUCACUUAAAAGCCAGAGUGCAAGUCAUGAUUUGCGGGAGGGCUCUUGAACCACUUCUGGCUGCACCACAAUUCU: 0.529

Block 2
Target: ABI1, truncated, D143A, DHFR fusion (Arabidopsis thaliana)
Method: DHFR PCA, deep sequencing
Sample: yeast
Setting: methotrexate growth selection, single substitutions
With: (+)-ABA 1.4 µM
Reference: wild-type fitted maximum
Direction: higher = stronger binding
Endpoint: relative binding score
Starting sequence: PYL1, truncated, DHFR fusion (Arabidopsis thaliana); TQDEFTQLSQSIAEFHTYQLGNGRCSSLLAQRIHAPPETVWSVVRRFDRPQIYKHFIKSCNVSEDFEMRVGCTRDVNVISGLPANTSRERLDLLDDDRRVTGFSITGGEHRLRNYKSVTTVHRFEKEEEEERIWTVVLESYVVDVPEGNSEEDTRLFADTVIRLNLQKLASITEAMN; partner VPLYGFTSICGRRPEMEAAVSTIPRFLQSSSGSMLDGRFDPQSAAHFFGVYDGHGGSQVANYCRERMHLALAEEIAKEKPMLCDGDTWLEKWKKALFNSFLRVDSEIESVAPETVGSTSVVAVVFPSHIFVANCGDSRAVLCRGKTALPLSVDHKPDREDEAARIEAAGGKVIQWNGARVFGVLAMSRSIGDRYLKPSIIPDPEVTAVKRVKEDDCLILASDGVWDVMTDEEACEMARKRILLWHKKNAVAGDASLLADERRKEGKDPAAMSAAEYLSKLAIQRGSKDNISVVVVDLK
E14D: 30.1%
I52F: 27%
H55S: 73.8%
T17P: -24.5%
T6H: 60.2%
E127K: 74.2%
E127N: 63.9%
V40P: 2.67%
L28Q: 23.2%
R155Q: 21%
S140D: 4.81%
L166F: -8.64%
A170K: 66.4%
Y53W: 52.6%
L91W: 4.53%
V143P: -4.59%
K116I: -8.3%
D159F: -30.6%
E152L: 17%
S9R: 75.5%
G148F: -37.7%
Y115V: -4.39%
N61A: 62.9%
A175F: 6.23%

Block 3
Target: CCNB3, cyclin fold, Cln2 fusion (human)
Method: yeast growth competition, sequencing
Sample: yeast
Setting: weak parent motif
Reference: not given
Direction: higher = stronger binding
Endpoint: normalised enrichment score
Starting sequence: E2F1 docking peptide (human); PPVKRRLDLETDH
P2H: 0.606
T11Y: 0.829
R6M: 0.423
L9F: 2.12
K4W: 0.409
H13Y: 0.545
K4H: 0.715
T11N: -0.0933
R6S: 0.000643
R5M: -0.0213
D8I: 0.454
L7C: 0.148
R5D: 0.0332
H13P: 0.721
D12N: 0.124
P2I: -0.196
D12A: 0.638
T11C: -0.116
P2A: 0.25
K4S: 0.553
T11H: -0.0523
R5A L7A: -0.339
R5W: 0.279
K4N: 0.381
V3T: 0.0754

Block 4
Target: Interferon regulatory factor 5, full length, phosphomimetic (IRF5, Homo sapiens, UniProt Q13568-2, residues 1-514, S451D/S453D/S456D/S462D)
Method: protein-binding microarray
Molecule type: double-stranded DNA, one strand shown
Sample: in vitro
Tested at: 940 nM top
Setting: 60-bp whole probe
With: salmon DNA 0.4 mg/ml
Reference: random background probes
Direction: higher = stronger binding
Endpoint: fitted relative affinity
All sequences stand within: GCCTAGCAC … GTCTTGATTCGCTTGACGCTGCTG
TCAAGTCCCAAGAATGGTACTGTGCTA: -0.421 z-score
TTGGTTTTCATTATTGCTTCGTGCTAG: 2.74 z-score
TCATCATTGTTTTTCATACTGTGCTAG: 0.822 z-score
TTAGGACTGGTTATCGGTTAGTGCTAG: 0.203 z-score
TTAGGTATCGGACTGGGTTAGTGCTAG: 3.56 z-score
TTAGGTTTCGGTCTCGGATAGTGCTAG: 14.2 z-score
GACGATTTCAGTCTCAAGACGTGCTAG: 0.602 z-score
GACGGTTTCCTTTTTCTGACGTGCTAG: 2.11 z-score
TTAGGACTGGGGTATCGGATAGTGCTA: 0.548 z-score
GACGGTTTCGACTATTGGGACGTGCTA: 7.53 z-score
TGTGTCTGGAATTTTTAGAAGTGCTAG: -0.394 z-score
CATATATTCACTATAGTGTGGTGCTAG: -0.0736 z-score
TATGTTCCTTTAGCACTTTGGTGCTAG: -0.0394 z-score
TTAGGACTGGACCATCGGTTAGTGCTA: -0.759 z-score
TCACCTCACAGTTTGTAACTGTGCTAG: 0.096 z-score
AACGGTATCGACACTGGGGACGTGCTA: 4.45 z-score
GACGGTTTCGACTACCGGGACGTGCTA: 8.8 z-score
TCAATTTTGAGACTCATACTGTGCTAG: 0.0526 z-score
CCCTTTTCATGCTCTTATATAGTGCTA: 1.47 z-score
AACGGTATCGGGTATCGGGACGTGCTA: 6.31 z-score
GACGGTTTCCTACCGCTGACGTGCTAG: 0.352 z-score
TGAGAACTGAGTCTCGATTAGTGCTAG: 3.23 z-score

Block 5
Target: Fragile X messenger ribonucleoprotein 1, C-terminal low-complexity region (Fmr1, Mus musculus, UniProt P35922)
Method: RNA Bind-n-Seq
Molecule type: RNA
Sample: in vitro
Tested at: 200 nM
Setting: whole 134-nt RNA, ends assumed
With: 150 mM KCl
Reference: input library
Direction: higher = stronger binding
Endpoint: log2 enrichment
All sequences stand within: GGGAGUUCUACAGUCCGACGAUC … UGGAAUUCUCGGGUGUCAAGG
GCAGGAAGUAAAAACAAAUGGAAAUCCUUCGGAUAGUGGCAGGGGUGGGGGUUGCUAAGGAAAGGGUGGGAUGGGAGUGGGUAAAGAGUU: 0.577
CACAGACAACACGCACCCACACAGACACAGAGGGAAGGGGUUGGGAUGUGGACAGGGUGCACAGCAGGGCGGGGUAGGACCCCAGCCCCU: 0.921
CCUCAAGUCCUGUGCUACACAUCGUAUGUACCGAAUCGUGUGUGUGUGUGUGUAAAGUAUUAUGUUACGCCGUUCGGAUCUGCACUUCCA: 0.0742
GCAGGAAGUAAAAACAAAUGGAAAUGCUUCGGAUAGUGGCAGGGGUGGGGGUUGCUAAGGAAAGGGUGGGAUGGGAGUGGAUAAAGAGUU: 0.31
AGUCCUGUGCUACACAUCGUAUGUACCGAAUCGGGUGGGAAAAAAAGGGAAAAAGGGAAAGUAUUAUGUUACGCCGUUCGGAUCUGCACU: 0.27
UCAAGUCCUGUGCUACACAUCGUAUGUACCGAAUCGGAAAGGUGGAAAAAAAGGAAAGUAUUAUGUUACGCCGUUCGGAUCUGCACUUCC: -0.955
UCAAGUCCUGUGCUACACAUCGUAUGUACCGAAUCGGGUGGGAGGGAAAAAGGGAAAGUAUUAUGUUACGCCGUUCGGAUCUGCACUUCC: 0.985
GUCCUGUGCUACACAUCGUAUGUACCGAAUCGGGGAAAAAAAGGGGUGGGGAAAGGGGAAAGUAUUAUGUUACGCCGUUCGGAUCUGCAC: 0.287
AGUCCUGUGCUACACAUCGUAUGUACCGAAUCGGCCCCCGGCCCCCGGGCCCCCGGGGAAAGUAUUAUGUUACGCCGUUCGGAUCUGCAC: -0.472
UCCUGUGCUACACAUCGUAUGUACCGAAUCGGGUUUUUUUGGGUUUUUGGGAAAAAGGGAAAGUAUUAUGUUACGCCGUUCGGAUCUGCA: -0.171
UCCUCAAGUCCUGUGCUACACAUCGUAUGUACCGAAUCGUGUGUGUGUGUGUAAAGUAUUAUGUUACGCCGUUCGGAUCUGCACUUCCAG: 0.533
AGUCCUGUGCUACACAUCGUAUGUACCGAAUCAAACCCAAACCCAAACCCCCCCAAAAAAGUAUUAUGUUACGCCGUUCGGAUCUGCACU: -0.186
CCUCAAGUCCUGUGCUACACAUCGUAUGUACCGAAUCGGGAGGGAGGGGAGGAAAGUAUUAUGUUACGCCGUUCGGAUCUGCACUUCCAG: 0.92
AAGUCCUGUGCUACACAUCGUAUGUACCGAAUCGGGAAAAGGGAAAAGGGGAAAAGGAAAGUAUUAUGUUACGCCGUUCGGAUCUGCACU: -0.22

A few entries again (block 4):
GACGGTTTCCTTTTTCTGACGTGCTAG: 2.11 z-score
TTAGGACTGGGGTATCGGATAGTGCTA: 0.548 z-score
GACGGTTTCGACTATTGGGACGTGCTA: 7.53 z-score
TGTGTCTGGAATTTTTAGAAGTGCTAG: -0.394 z-score
CATATATTCACTATAGTGTGGTGCTAG: -0.0736 z-score
TATGTTCCTTTAGCACTTTGGTGCTAG: -0.0394 z-score
TTAGGACTGGACCATCGGTTAGTGCTA: -0.759 z-score
TCACCTCACAGTTTGTAACTGTGCTAG: 0.096 z-score
AACGGTATCGACACTGGGGACGTGCTA: 4.45 z-score
GACGGTTTCGACTACCGGGACGTGCTA: 8.8 z-score
TCAATTTTGAGACTCATACTGTGCTAG: 0.0526 z-score
CCCTTTTCATGCTCTTATATAGTGCTA: 1.47 z-score
